Measurements of several laboratories.
Each numbered part is a random draw from the data of one study; scales do not carry over between parts.

Block 1 — technique: protein binding microarray; form: double-stranded DNA, one strand shown; sample: in vitro; tested at: not given; relative to: not given; reading: higher = stronger binding
Target: Histone acetyltransferase KAT6A, both winged helices, GST fusion (KAT6A, Homo sapiens, UniProt Q92794, residues 1-181)
Setting: 8-mer, flanks averaged, mean of 2 arrays, mostly near background
Construct (chain): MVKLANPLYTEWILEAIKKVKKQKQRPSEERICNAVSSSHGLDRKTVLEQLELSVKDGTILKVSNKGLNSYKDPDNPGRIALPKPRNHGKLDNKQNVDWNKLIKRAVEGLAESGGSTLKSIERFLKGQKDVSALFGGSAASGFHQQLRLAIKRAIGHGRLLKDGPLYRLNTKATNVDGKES
Sequence | E-score
CAGCTCGA | -0.0814
ATGGTATA | -0.151
CCACGAAA | -0.125
CCGCTCTC | 0.158
TAAGTTAA | -0.109

Block 2 — technique: protein-binding microarray; form: double-stranded DNA, one strand shown; sample: in vitro; tested at: 250 nM; setting: 60-bp whole probe; together with: salmon DNA 0.4 mg/ml; relative to: random background probes; reading: higher = stronger binding
Target: Interferon regulatory factor 5, full length, phosphomimetic (IRF5, Homo sapiens, UniProt Q13568-2, residues 1-514, K96S/S451D/S453D/S456D/S462D)
Sequence | log fluorescence [z-score]
GCCTAGCACTCAGGTATAAACTTGGGACTGTGCTAGGTCTTGATTCGCTTGACGCTGCTG | -0.261
GCCTAGCACGTGAGAAATAAGTTTCTTTTGTGCTAGGTCTTGATTCGCTTGACGCTGCTG | 1.52
GCCTAGCACGACGGACTGCACTATCGGGACGTGCTAGTCTTGATTCGCTTGACGCTGCTG | 1.2
GCCTAGCACGACGGTATCCTTCTCCTGATGTGCTAGGTCTTGATTCGCTTGACGCTGCTG | 0.283

Block 3 — technique: RNA Bind-n-Seq; form: RNA; sample: in vitro; tested at: 365 nM; relative to: no-protein control; reading: higher = stronger binding
Target: RNA binding protein fox-1 homolog 2, RRM domain, GST-SBP tag (RBFOX2, Homo sapiens, UniProt O43251-10, residues 100-194)
Setting: natural RNA segment, single round, ends assumed
Shared flanks, not repeated: GGGAGUUCUACAGUCCGACGAUC … UGGAAUUCUCGGGUGCCAA
Sequence | RBNS enrichment (R)
CUCUCCUGCAUGUUGACAUGACGGCCCUUUCCAAGGGUGAUGGAGGCUUUCCCAAGCUAAGGGCCUAGGCAGAUCUCUCAGAGCAAGAAGCUAAUGCCGGCAUGUCCCUU | 8.6
UUAAAUGAUUCUUUGUGUACCUUUUCUGUCAUAUUCAGAAACCGUUUUGUGCCUGCUGGGAGUAAUUCCUUUAGCAAUUAAGUAUUUGGUAGCUGAAUAAGGGGUCAGAA | 0.36
UUGUAAUUUGGGGAUCUUGAUUUCACCGUUGUUGGUGAAGGAAAUUUUCAAUAAAUAUGCAUAACCUACAAAGCUGGCAUGUGUCGUGCCCCAGCCCCCUGCACCUUCCC | 1.09
CAUACAUUGUACUGAUCAAGUUAUACACCCAGGGGUAUAUACACUUUCUUCAUGUUUCUUCUUUGUAUAUUUGGUGACUGUAUCGUCAUAGAUGUACAUAUUGUGUCGGU | 0.375
CGAUGUGUGCUUUAGGGAAUUUUAAGUUGCAUGCAUUUCAGAGACUUUAAGUCAGUUGGUUUUUAUUAGCUGCUUGGUAUGCAGUAACUUGGGUGGAGGCAAAACACUAA | 1.02

Mixed results
Substance | target | test | system | conditions | how to read | quantity | value
PhoQ, residues 284 288 289 292 302 303 SCKMEA | PhoP, residues 12 14 15 18 19 LHSVQ (Escherichia coli, UniProt P23836) | Sort-seq, item: YFP reporter | E. coli | PhoQ-PhoP variant library, together with: 10 µM Mg2+ | relative to: high Mg2+ state, higher = stronger signaling | fold induction | 19.8

A few entries again (block 3):
Sequence | RBNS enrichment (R)
CAUACAUUGUACUGAUCAAGUUAUACACCCAGGGGUAUAUACACUUUCUUCAUGUUUCUUCUUUGUAUAUUUGGUGACUGUAUCGUCAUAGAUGUACAUAUUGUGUCGGU | 0.375
CGAUGUGUGCUUUAGGGAAUUUUAAGUUGCAUGCAUUUCAGAGACUUUAAGUCAGUUGGUUUUUAUUAGCUGCUUGGUAUGCAGUAACUUGGGUGGAGGCAAAACACUAA | 1.02
